Published values pooled from the literature.
Parts stem from different laboratories: compare values within a part only. Changes are numbered by the printed parent chain.

Series 1
Target: Histone acetyltransferase KAT6A, winged helix 2, GST fusion (KAT6A, Homo sapiens, UniProt Q92794, residues 85-181)
Technique: protein binding microarray
Form: double-stranded DNA, one strand shown
Matrix: in vitro
Tested at: not given
Setting: 8-mer, flanks averaged, mean of 2 arrays, mostly near background
Baseline: not given
Direction: higher = stronger binding
Target sequence (chain): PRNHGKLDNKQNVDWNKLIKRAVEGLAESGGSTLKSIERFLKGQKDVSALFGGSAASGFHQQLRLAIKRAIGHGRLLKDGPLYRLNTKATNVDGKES
Oligonucleotide | E-score
GAGGCTGA | -0.012
TACGGTAA | -0.131
AATACCCC | -0.103
CGCTAAAG | 0.0179
AGACGCCG | 0.0144
GATAGTCC | -0.0846
GCGTTGAA | 0.0285
CCTACATA | -0.118
ACCGCTTG | 0.0915
AAGATAAG | 0.0114
AAGTTCTC | 0.0464
CACGATAC | -0.133
ATACCGAT | -0.0829
CTATCAAG | -0.0453
CTTCGGTA | -0.0743
AGTGCCAA | 0.125
AGCGGTCG | -0.0479
GTTTGTAA | 0.0218
ACATATGT | -0.109

Series 2
Target: CCND2, cyclin fold, Cln2 fusion (human)
Technique: yeast growth competition, sequencing
Matrix: yeast
Setting: strong parent motif
Baseline: not given
Direction: higher = stronger binding
Starting sequence: INSM1 docking peptide (human); PKAIRKLHFEDEV; partner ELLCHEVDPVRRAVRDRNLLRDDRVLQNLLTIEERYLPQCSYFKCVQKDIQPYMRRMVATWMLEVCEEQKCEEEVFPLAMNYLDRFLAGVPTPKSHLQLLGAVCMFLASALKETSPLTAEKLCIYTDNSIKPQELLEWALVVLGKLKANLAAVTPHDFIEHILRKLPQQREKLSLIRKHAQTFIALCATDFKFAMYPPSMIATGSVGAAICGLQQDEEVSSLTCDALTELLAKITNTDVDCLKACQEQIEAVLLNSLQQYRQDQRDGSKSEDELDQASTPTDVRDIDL
Substitution | normalised enrichment score
PKAIRKLHFEDCV [E12C] | 1.98
PKAIYKLHFEDEV [R5Y] | 1.18
PKAIFKLHFEDEV [R5F] | 0.238
PKAKRKLHFEDEV [I4K] | 1.35
PKAIRKLHFEDWV [E12W] | 1.62
PKQIRKLHFEDEV [A3Q] | -0.0543
PKAIRKLFFEDEV [H8F] | 1.67
PKAIRRLHFEDEV [K6R] | 2.07
PFAIRKLHFEDEV [K2F] | 1.14
PKAIWKLHFEDEV [R5W] | 0.473
PKAIRGLHFEDEV [K6G] | 0.376
PKAIRKLHFEFEV [D11F] | 1.84
PKAIRKLQFEDEV [H8Q] | 3.17
PSAIRKLHFEDEV [K2S] | 3.15
PKAIEKLHFEDEV [R5E] | 0.313
PKAIRILHFEDEV [K6I] | 1.4
PRAIRKLHFEDEV [K2R] | 2.36
PKAIRKLHHEDEV [F9H] | 0.257
PKAIRKLHFPDEV [E10P] | 1.88
PKAIRFLHFEDEV [K6F] | 0.905
PKAIRKLNFEDEV [H8N] | 3.55
PKAIRKLHFENEV [D11N] | 1.74
PKAIRKLHFEDKV [E12K] | 1.75
PKPIRKLHFEDEV [A3P] | 0.768
PKAIRKEHFEDEV [L7E] | 0.176

Series 3
Target: RNA binding protein fox-1 homolog 2, RRM domain, GST-SBP tag (RBFOX2, Homo sapiens, UniProt O43251-10, residues 100-194)
Technique: RNA Bind-n-Seq
Form: RNA
Matrix: in vitro
Tested at: 365 nM
Setting: natural RNA segment, single round, ends assumed
Baseline: no-protein control
Direction: higher = stronger binding
Shared flanks, not repeated: GGGAGUUCUACAGUCCGACGAUC … UGGAAUUCUCGGGUGCCAA
Residues (chain): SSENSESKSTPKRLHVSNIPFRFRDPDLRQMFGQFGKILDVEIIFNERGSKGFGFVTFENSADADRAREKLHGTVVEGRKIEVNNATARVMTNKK
Oligonucleotide | RBNS enrichment (R)
GGCUUUGUUACCCAGGCUGGAUUGCAAUGGGGUGAUCUAGGCUCACUGCAGCCUCCACCACCUGAGUUCAAGCGAUUUUUCUGCCUCAACCUCUCCUGAGUAGCUGGGAC | 0.256
CGUCGCACUCUGAGUGGGCCAACCCCGACCGUCAGCUCUGCUGUGCUCGGUGGAUGCUGGGCCCAAGGUGUAGGCAGAAUGAUUGGCCAGCUGGCCUCUCUCAUCUCUCA | 0.487
UUUUUAAGAGAAGCAAAAACAAAAGUAAACUCCUUUCCCUGGCCCUCCAAACAUAUAUUCUGUGAGAUAACUGUGCCUGCUACCAAGUGUUAAUCCUGGGAUCGUAUUUU | 4.06
CCCCAAAUUUGUCUAAGCACUGGCCAGUCUGUUGUGGGCAUUGUUUUCUACAACCAAAUUCUGGGUUUUUUUCUUCUUUCUUUAAACAUAGAGGUACCACCACAAGGGAU | 1.08
CCAUCAGCAAUACCUGGUGUUCUCCCACCUUGAAAGGACUCUUGGCUCCUGCCGGGUUCCUGCUCAGGCUGGAAUUGGGAAAAUAUGCAGGUGACAUUUGUUCAUUCUCU | 0.28
GCACUCGUGCUGGGCAUCCUGCCGAAGUGGCCACACUGCCACACUGCUCUGGCUCACGAGUAUUGGAGGACCUGAGCACCUCAGGCCGUGGGUCUGUGUGGGGUGUGUGG | 0.532
UGUGUUCUUCCAGCCAGCCUUGGGCUUUGGGCCCAGCCAGGCUCACACCCAGAAAGGGGUGUCCUGACACCCCACCCAGGCCUUGAGGACGGUGCGGUAAUGACUGCCCA | 0.281
UAUGGUAUGACUUGAAUCAGUUUUGAUUCUAUGUGUAAGUUCUCAUCGUUUGGAACCUGGUAUUUCUGUUGUGUUCUUGGCAGUGCAUAGGAACCCAGCCUCCUGUGUUU | 0.449
UUCAAGAACCAGACAACAGGAUGCCUUAGAAGCUGGCUGGGUUUUGGGUCAGGGGCUCAGUAUGAGAAGAAGAAAUAUGAACAGCAAAUAAAACAUUUUUGUAUAAGCUC | 2.68
UUCCUUCAUUGUUCUCUUCAGGGGCUUUCUUCCACUUUCCUCUUAUGAAACGAAUGUGUUUUUGACUGUUAACUGGGUUCGCUUUCCAGAUCUGUCUUUCCCAAAUGAAA | 0.618
UGUUUGUACUUGAGGUAUGUAACAUUUGUAUACCUGAACUUAUUUUAAAGAUGAACUGAAAUGCACAUAGCCAAGUCUUGAGAUACAAGAUUGAAUGUGUAUUUCUUAAA | 0.431
GUUUGCACAAAGGAUUUGACGCCACAGGAGUGUGUGAGGAAGACAGGGCGGGCUGAGGGCAGAAGGCAGUGAGACAUUUAUCCACAGAACAGUCUCCCUCGUCCCACCCA | 0.363

Series 4
Target: ABI1, truncated, D143A, DHFR fusion (Arabidopsis thaliana)
Technique: DHFR PCA, deep sequencing
Matrix: yeast
Setting: methotrexate growth selection, single substitutions
With: (+)-ABA 2500 µM
Baseline: wild-type fitted maximum
Direction: higher = stronger binding
Starting sequence: PYL1, truncated, DHFR fusion (Arabidopsis thaliana); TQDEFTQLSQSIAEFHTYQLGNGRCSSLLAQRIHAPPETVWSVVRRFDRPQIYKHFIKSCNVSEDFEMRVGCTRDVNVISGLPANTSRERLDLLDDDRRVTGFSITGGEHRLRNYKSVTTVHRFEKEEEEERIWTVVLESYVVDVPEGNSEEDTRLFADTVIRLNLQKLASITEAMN
Substitution | relative binding score [%]
S42H | 94.7
V78E | 13.1
Q2C | 101
E89K | -14
I33K | -30.7
K58A | 96.9
D95P | -6.18
E131G | 109
I52W | 93
P83E | 79.2
E174F | 88
S87R | 8.84
V70L | 91.6
D159Q | 88.5
I52M | 93.6

Series 5
Target: ATF3, bZIP domain (human)
Technique: DHFR protein complementation
Matrix: yeast
Setting: single substitutions, most at no-binding floor
Baseline: wild-type JUN-FOS pair
Direction: higher = stronger binding
Starting sequence: JUN, bZIP domain (human); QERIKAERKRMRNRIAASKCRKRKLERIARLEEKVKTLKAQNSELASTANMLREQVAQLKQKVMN; partner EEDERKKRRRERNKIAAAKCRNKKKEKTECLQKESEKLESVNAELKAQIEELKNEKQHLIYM
Substitution | binding fitness [natural log]
A57V | -0.312
R53M | -0.237
R53K | -0.114
K34V | -0.346
Q41H | -0.314
S47P | -1.24
S47I | -0.0919
M51T | -0.0747
L52I | -0.488
Q41V | -0.179
E32C | -0.554
L38V | -0.942
A29K | -0.253
M51P | -1.39
N42F | -0.455
S43P | -1.2
L45P | -1.25
A49C | -0.124
E32L | -0.371

Excerpt of the above (series 1):
Oligonucleotide | E-score
AGTGCCAA | 0.125
CTATCAAG | -0.0453
GCGTTGAA | 0.0285
AGCGGTCG | -0.0479
AATACCCC | -0.103
TACGGTAA | -0.131
GAGGCTGA | -0.012
CCTACATA | -0.118
CACGATAC | -0.133
AGACGCCG | 0.0144
CTTCGGTA | -0.0743
GATAGTCC | -0.0846
AAGTTCTC | 0.0464
CGCTAAAG | 0.0179
ATACCGAT | -0.0829
